Measured values of several laboratories.
Every numbered part comes from another study and shows a few of its results, in no order. Substitutions count along the parent as printed.
Chain of UniProt P21709 (whole entry, looked up): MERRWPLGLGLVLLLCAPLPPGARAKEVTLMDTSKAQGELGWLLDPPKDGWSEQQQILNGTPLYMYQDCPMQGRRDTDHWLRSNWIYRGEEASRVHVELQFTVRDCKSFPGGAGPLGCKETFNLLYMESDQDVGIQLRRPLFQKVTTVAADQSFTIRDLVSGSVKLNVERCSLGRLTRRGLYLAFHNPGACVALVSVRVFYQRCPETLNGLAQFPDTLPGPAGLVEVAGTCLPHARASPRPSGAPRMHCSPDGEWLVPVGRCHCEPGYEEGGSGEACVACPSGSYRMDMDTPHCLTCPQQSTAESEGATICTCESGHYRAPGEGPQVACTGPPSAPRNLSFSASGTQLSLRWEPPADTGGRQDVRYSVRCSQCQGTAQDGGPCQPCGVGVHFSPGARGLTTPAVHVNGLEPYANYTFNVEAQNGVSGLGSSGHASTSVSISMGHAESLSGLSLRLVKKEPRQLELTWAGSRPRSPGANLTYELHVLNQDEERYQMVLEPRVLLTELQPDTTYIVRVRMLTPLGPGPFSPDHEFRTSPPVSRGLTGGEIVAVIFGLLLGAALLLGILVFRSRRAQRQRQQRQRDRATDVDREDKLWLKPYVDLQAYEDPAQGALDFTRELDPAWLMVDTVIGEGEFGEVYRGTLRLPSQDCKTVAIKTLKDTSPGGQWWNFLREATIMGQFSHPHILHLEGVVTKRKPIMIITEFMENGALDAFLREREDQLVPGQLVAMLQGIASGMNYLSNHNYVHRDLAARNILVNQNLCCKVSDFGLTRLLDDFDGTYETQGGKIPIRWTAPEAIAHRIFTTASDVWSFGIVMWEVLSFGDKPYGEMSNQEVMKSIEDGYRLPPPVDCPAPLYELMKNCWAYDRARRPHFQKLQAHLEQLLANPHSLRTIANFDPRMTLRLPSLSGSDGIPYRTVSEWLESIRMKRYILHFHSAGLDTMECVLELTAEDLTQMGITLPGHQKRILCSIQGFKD
Chain of UniProt P62344 (whole entry, looked up): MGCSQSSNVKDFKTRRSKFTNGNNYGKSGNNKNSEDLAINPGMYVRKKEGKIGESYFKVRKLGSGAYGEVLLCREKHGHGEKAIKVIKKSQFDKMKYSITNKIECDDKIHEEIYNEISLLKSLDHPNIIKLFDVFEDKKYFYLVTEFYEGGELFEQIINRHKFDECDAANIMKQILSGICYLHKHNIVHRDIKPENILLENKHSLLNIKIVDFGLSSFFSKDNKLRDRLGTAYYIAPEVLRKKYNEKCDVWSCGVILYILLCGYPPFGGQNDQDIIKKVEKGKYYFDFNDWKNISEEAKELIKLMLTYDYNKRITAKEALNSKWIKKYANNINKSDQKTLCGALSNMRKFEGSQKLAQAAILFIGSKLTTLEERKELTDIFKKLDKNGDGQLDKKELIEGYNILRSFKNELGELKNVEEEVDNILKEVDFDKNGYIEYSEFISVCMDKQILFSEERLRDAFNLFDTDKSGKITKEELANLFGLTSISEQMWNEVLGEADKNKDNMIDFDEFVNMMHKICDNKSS

Block 1
Target: HLA class I histocompatibility antigen, A alpha chain, allele A*26:03 (Homo sapiens, UniProt P04439)
Read-out: peptide-MHC binding
Form: peptide
Tested at: concentration not given
`TLYCVHQEI`: binding “inactive”.
`EVIKYGIIY`: binding “inactive”.
`SHEQGDIAL` — result for binding: “inactive”.
Under binding, `IQRRGAQFQ` is recorded as “inactive”.
Under binding, `YMGLVKKAK` is recorded as “inactive”.
For `EIIWPDRQM`, binding read “inactive”.
Under binding, `YERGNIIIF` is recorded as “inactive”.
Under binding, `EQRLIDICV` is recorded as “inactive”.

Block 2
Target: CCND3, cyclin fold, Cln2 fusion (human)
Technique: yeast growth competition, sequencing
Medium: yeast
Notes: weak parent motif
Baseline: not given
Reading: higher = stronger binding
Parent: viral docking peptide; YKVKRRLVFGADD
For `K4N`, “normalised enrichment score” read 0.145.
For `G10L`, “normalised enrichment score” read 0.0236.
`G10S` — result for “normalised enrichment score”: -0.0044.
`R5G` — result for “normalised enrichment score”: -0.155.
For `L7C`, “normalised enrichment score” read -0.289.
For `L7R`, “normalised enrichment score” read 0.0363.
Under “normalised enrichment score”, `G10F` is recorded as -0.224.
`K2I` — result for “normalised enrichment score”: 0.0187.

Further values, each from its own experiment
CCCCN(CCCC)C(=O)CN1C[C@@H](c2cc(OC)c3c(c2)OCO3)[C@H](C(=O)O)[C@H]1CC(C)(C)CCC gave a remaining binding of 86.9% (CDPK1 (Plasmodium falciparum, UniProt P62344); cell-free assay, competition with immobilised ligand; 1 µM).
The remaining activity of COc1ccc2c(c1)/C(=C/c1cnc[nH]1)C(=O)N2 is reported as 97.3% (EPHA1 (Homo sapiens, UniProt P21709); enzyme activity, inhibitor; 0.5 µM; baseline: control).

For quick reference, copied from above (block 1):
Under binding, `YERGNIIIF` is recorded as “inactive”.
